# Measured values collected from several papers.
# Numbered parts are unrelated; each lists some results of a single study.

# Set 1
# Target: Interferon regulatory factor 5, full length, phosphomimetic (IRF5, Homo sapiens, UniProt Q13568-2, residues 1-514, K96S/S451D/S453D/S456D/S462D)
# Method: protein-binding microarray
# Form: double-stranded DNA, one strand shown
# Matrix: in vitro
# Concentration: 250 nM
# Setting: 60-bp whole probe
# With: salmon DNA 0.4 mg/ml
# Baseline: random background probes
# Reading: higher = stronger binding
# Constant ends, left off below: GCCTAGCAC … GTCTTGATTCGCTTGACGCTGCTG
Strand,log fluorescence
GACGGTTTCGGTCTCCGGACGTGCTAG,9.57 z-score
ATAAATATGAGACTGGGGATGTGCTAG,0.0786 z-score
TTAGGTATCGACTATAGGTTAGTGCTA,3.39 z-score
TTAGGACTGGGGTTTCGGTGAGTGCTA,4.11 z-score
TCATTTCTGAATGTCCTACTGTGCTAG,1.15 z-score
GACGATTTCGGGACTCGAGACGTGCTA,1.5 z-score
TCAGATATCAGTATCGATTAGTGCTAG,8.02 z-score
GGCGAACTGAGTTTCGAGACGTGCTAG,4.89 z-score
TTAGGTAACCTTTTCCTTTAGTGCTAG,0.122 z-score
TTATGTTTCGACTATCGGTTAGTGCTA,9.62 z-score
GACGGACAGGACTATCGGGACGTGCTA,0.98 z-score
GACGGCATCGACACTGGGGACGTGCTA,-0.329 z-score
TTTGCTTTCTTTTATGCTCTGTGCTAG,2.87 z-score
GACGGACGGCTTTTCCTGACGTGCTAG,-0.65 z-score
GACGGTATCCATTTCCTGACGTGCTAG,0.292 z-score
GACGGACTGGACTTTCTGGACGTGCTA,0.13 z-score
TTAGGACTGGACTTTCGCTTAGTGCTA,5.64 z-score
TCATATATATATTATATAACTGTGCTA,0.746 z-score
GACGGACGGGACACTGGGGACGTGCTA,-0.947 z-score
GACGGTTACGGACTGGGGACGTGCTAG,-0.511 z-score

# Set 2
# Target: RING finger protein unkempt homolog, zinc fingers 1-6, GST-SBP tag (UNK, Homo sapiens, UniProt Q9C0B0, residues 30-357)
# Method: RNA Bind-n-Seq
# Form: RNA
# Matrix: in vitro
# Concentration: not given
# Setting: RNA with constant flanks, human and mouse sites, ends assumed
# Baseline: input RNA pool
# Reading: higher = stronger binding
# Constant ends, left off below: GGGAGUUCUACAGUCCGACGAUC … CAACAGAGGAUUGAGCAUCA
# Construct (chain): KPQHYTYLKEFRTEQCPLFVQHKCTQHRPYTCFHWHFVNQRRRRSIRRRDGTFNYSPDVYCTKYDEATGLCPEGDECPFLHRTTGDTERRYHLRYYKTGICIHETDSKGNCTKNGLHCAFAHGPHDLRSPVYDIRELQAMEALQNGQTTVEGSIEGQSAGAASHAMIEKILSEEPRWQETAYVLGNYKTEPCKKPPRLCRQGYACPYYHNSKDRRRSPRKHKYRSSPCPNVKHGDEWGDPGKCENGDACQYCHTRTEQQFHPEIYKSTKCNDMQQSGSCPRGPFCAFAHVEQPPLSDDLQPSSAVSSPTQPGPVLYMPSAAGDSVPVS
Strand,bound/input enrichment
CCGCCUCGGGUCGUGGAGCCAGGAGCGACGUCACCGCCAUGGCAGGCAUCAAAGCUUUGAUUAGUUUGUCCUUUGGAGGAGCAAUCGGACUGAUGUUUUUGAUGCUUGGAUGUGCCCUUC,0.139 ratio
AGUUCACCGUGUAUCCACUACUUCACCGGGACCCCAGAUCCUUCCAGGUCCAUAUUCAAGCCUUUCAUCUUUGUUGAUGAUGUAAAACUUGUCCCCAAAGCACAGUCACCCUGUUUUGGU,0.131 ratio
AAAGAAGACAUUGCCAUGUGGGAAGUAAAUGAAGCAUUCAGUGUGGUUGUGCUAGCCAACAUUAAAAUGCUGGAGAUUGACCCCCAAAAAGUAAAUAUCCACGGAGGAGCUGUUUCUCUG,0.186 ratio
AAUAUCAGUGUUGGACGUUAAUGCCCACUUUUCUUAUUCUUACUCAGCCCCUUUUCCUCCCUUAGGAGCAUUGGUCCUCUGUUGUCCAUUUUUAUCACCAGAUGUUUUCCACUGAAGCAU,2.52 ratio
CUCUCCGCGCGCCCGACAGCUCAGCCCUCGCCCGUGACCAACAUCAUGUGCGGUAUAUUUGCUUAUUUAAAUUACCAUGUUCCUCGAACAAGACGAGAAAUCUUGGAGACACUAAUCAAA,0.322 ratio
CUCAAGCUACCAAAAAGAAAGUGGCAAUAUAUUGACUCAGGAUCUCAAAGCUGGGUGUUUUAGCAUUACUGUGUAAAGACUUGAAGGGACAGAAGUGAAGAAAAUAAGCUGCAAUUUUGU,0.288 ratio
CUGUGACCACAAGAUCCUACCUGAGUGGCAGCUGAAGUUGACUCCCUCUCCUUGCCUGAACCCCCCCCCACUGCCCCCCCAUCCCCCAGUGUCGGCUGAGAUGUUGCCUCUGCACGGUUC,1.32 ratio
AUGGGCCGCCACUGUGGAUACCUGGCCCUUGUCACCUCUCUGUCCUGUGGGGCCGACUGGGUUUUUAUUCCUGAGUGUCCGCCAGACGAUGACUGGGAAGAACACCUUUGUCGCCGGCUC,0.0829 ratio
CUCCCCUCUUGUUGUGUUUCUUUCAGGGAUACCAUUAAUUUAAUUGUAUGAUUUGUCUGCACUCAGUUUCUCCCCUUCUCAAAUCUCAGCCCCGCGUUGUUCUUUGUUACUGUCAGAAAA,0.905 ratio
GUGACCUGGGGGCAGGACCCAGAACUCAGGUCCCGCAUGAGCAGCACAUGCCCAUCCCUGCUGAGCCGUCUGUCAGAAAAGAAAGCUAUUCUUUCUGUUCUCAAGUGAACUUUCAUCUGU,0.123 ratio
UAAGAAUUGGAAGAAUUGUGUAGGAGGCAGUAGUCAAAAAGUAGAAGCAGUUUGGAAGAGUAGUUACAAAUAUCAAGAGCCAGGUGGCUAAAAGGUGGAGCUAUAGGUCAUUGAAGCUCA,9.85 ratio

# Set 3
# Target: Histone acetyltransferase KAT6A, winged helix 1, GST fusion (KAT6A, Homo sapiens, UniProt Q92794, residues 1-85)
# Method: protein binding microarray
# Form: double-stranded DNA, one strand shown
# Matrix: in vitro
# Concentration: not given
# Setting: 8-mer, flanks averaged, mean of 2 arrays, mostly near background
# Baseline: not given
# Reading: higher = stronger binding
# Target sequence (chain): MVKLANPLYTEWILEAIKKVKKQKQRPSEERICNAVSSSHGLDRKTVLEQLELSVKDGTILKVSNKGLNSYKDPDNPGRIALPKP
Strand,E-score
TGCCCCCA,-0.153
ACATCCCC,0.0517
ATGGACTG,-0.252
GTGAGGAA,-0.093
GAAAGATA,-0.188
GAGCTCTA,-0.0446
CTGTAACA,-0.0652
CACATGCG,0.181
AAGTCTAT,-0.266
ATCGGACA,0.00181
GCTTAGGA,-0.0443
AACTCTAG,-0.277
GCTAAAAA,0.0176
CCGATGCC,0.186
CGTGAGAG,0.00822
CCCGCTCC,0.297
TAGAATGA,-0.107
CCTTATCA,-0.0636
TTCGCCAA,-0.129
GCCTTCAC,0.12
ACAGTCCT,-0.269
AGACGCTC,0.122
GATCCACC,0.036
CGAACGAA,-0.08
AGCCCCTA,-0.225

# Set 4
# Target: RNA binding protein fox-1 homolog 2, RRM domain, GST-SBP tag (RBFOX2, Homo sapiens, UniProt O43251-10, residues 100-194)
# Method: RNA Bind-n-Seq
# Form: RNA
# Matrix: in vitro
# Concentration: 365 nM
# Setting: natural RNA segment, single round, ends assumed
# Baseline: no-protein control
# Reading: higher = stronger binding
# Constant ends, left off below: GGGAGUUCUACAGUCCGACGAUC … UGGAAUUCUCGGGUGCCAA
# Construct (chain): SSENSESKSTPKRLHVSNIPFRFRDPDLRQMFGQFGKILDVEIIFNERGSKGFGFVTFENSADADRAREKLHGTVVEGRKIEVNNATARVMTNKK
Strand,RBNS enrichment (R)
CUGGUUAGCCUUUGGAAUUUUUGUUGAUGAAAUCUCAAUACAUAAGGCGUCAACAGGGGGCUGGAGAGAUGGCUCAGGAGUUAAGAGCCCUGACUGCUCUUCCACAGGUC,0.287
CCCAGUCUCGGGUAUGUCUUUAUCAGCAGUGUGAAAACAGACUAAUACACCACUCCUCUACCUUCUUUAUUUUCUCAGUGUGGAAAAUGCCUGAUGAAAGCUUUGGGGCC,0.356
GGGACCAGCGGGCAUUUGUUUUCUUGCUGACUUUGCACCUCCUUUUUUCCCCAAACACUUUGCCAGCCACUGGUGGUCCCUGCUUUUCUGAGUACCAUGUUUCCAGGAGG,0.681
ACUCAUGGUCAAUACCCAGCCAGUCUUCUUACAGGGACUUGAGAGGCUCAGGCUACUAUGACCAAUAGAAGUGAAAGUCUUGGUCAUAAUUUGGGGUGACAUGCUGUCAA,0.834
CUCACACCCAGACACCCAGACACUUAACCACUCCUGCAAAGCAGAUAGAGCCUUCAGUUUGCCAUUACCCACUGUGGUCUGCUUUUCAGCCUAGCAAUUUGAGCUCUCAG,0.641
AUUCUAAAUUUAAAAAAUCUUCAAAUCUGAAUAUACCGCAAAUGUCAUGAGAAGUUUGAUUCAGUAACUUGUGAUGGAGGAUUCUUUGGUAUCUUACUGUUUGGUUAAGG,1.15
GUACAACUUGCUUUUAGCAUGAUUAUUUUCCUAAAUAAAAAGACAAAGAAUUUACUUACUUUAUGUUAAUUACGGGCAUGAAGCAAAAGGUUUUCUUUAAAAAAAAAAAA,2.42
GGGAGCUUUGCCCUUAGGGCUGUCCUCUGACUUGCCCUCAAAGUUCACCAAUUCGGCAACUCCAUGGAGACGGUCGUGUCACUCUCAGCCCCUGUUGCUAUUAAGUCAUG,0.342
AGCCGGGCCCCCUGUGCCUCUAGUAUACUUGUAUUGACUCUCAUAGUUACCCUUUUAGUUUUACUGUGUUCUGUGAAAAUUUGUAAUUGGUUGAGAAUCACUGUGGGCGU,0.479
GUGAUCAUGGCUUCUCUAGCUGAACUUGGCUGAGAACCUUUGACAAGGGAUUGGCACCAAGACCAGGCAGCCCUUGAUUUCCUCGCUCUCUGGAGCUAGUCAGUGUCCUA,0.371
GGAACGAGGGGUAUGUUUUAGAGCUAUGAGAACCUAGUCAGCCCACAGAGGCGUCAAACCUGAAGCUUGGGCCUUAAUUAGCAUUGUACUCUGAUGAAAGGACUCUUUCA,0.356
CGCCGAGGUCGGAAGGAGGGCACCUCAGGCAAGAGGAGACUGAGACUUUAGAGCCAAGGCCUGGCAGUCCUGCAGCCAGCCUCUGCUCGCAGCCGCAGACGGUCUGGACA,0.433

# A few entries again (set 3):
Strand,E-score
CGTGAGAG,0.00822
TTCGCCAA,-0.129
GATCCACC,0.036
GCTAAAAA,0.0176
GAAAGATA,-0.188
ATGGACTG,-0.252
AAGTCTAT,-0.266
GCTTAGGA,-0.0443
CCCGCTCC,0.297
CACATGCG,0.181
